Measurements pooled from the literature.
Each line is one published result; not all experiments were run side by side. Values joined by “and” are separate records of one study, mostly repeats; a detail may differ. Numbers after ± are the reported error.

For Nc1ncnc2c([C@@H]3N[C@H](CO)[C@@H](O)[C@H]3O)c[nH]c12, “viral RNA copies” read 882000 copies/mL (Marburg virus; HeLa, Musoke; 25 µM, 1 h).
For CCOP(=S)(OCC)Oc1nc(Cl)c(Cl)cc1Cl, the Vmax was 0.59 ± 0.11 nmol/min/mg protein (rat CYP3A; midazolam 4-hydroxylation; liver microsomes; concentration not given).
CCc1ccc(Sc2cc(C(=O)NCCCN3CCC(C)CC3)c3ccccc3n2)cc1 has an efficacy of 89.2% (SARS-CoV-2; cytopathic effect; USA_WA1/2020; retest, 8-point, duplicates).
With O=C1Nc2ccc(Cl)cc2[C@@](C#CC2CC2)(C(F)(F)F)O1 the EC50 was 3.7 ± 0.7 nM (HIV-1; viral replication, single-round infection; RT mutant D67E).
CN1CCN(c2ncnc3ccc(-c4cccc5[nH]ccc45)cc23)CC1 gave a remaining activity of 29% (Lassa mammarenavirus; viral replication; Huh-7; 10 µM, 72 h).
COc1cccc(-c2ccc(CN3CCCC(c4nc5ccc(C)cc5c(=O)[nH]4)C3)cc2)c1 (stereo not shown) gave an AC50 of 4470 nM (SARS-CoV-2; cytopathic effect, cell-based CPE; USA_WA1/2020; round 2, 5-point dilution).
`ATSRTLSYYK`: “frequency of responding donors” 100 (AIM; peptide, CD8+ T cells from PBMC, human donors; HLA-A*30:01 restricted, unit not given; baseline: positive over tested donors).
With COc1ccc(CC(=O)NC2CCN(Cc3ccc(-c4ccccc4OC)cc3)C2)cc1 (stereo not shown) the maximum response was 48.3% (SARS-CoV-2; cytopathic effect; USA_WA1/2020; retest, 8-point, duplicates).
The remaining activity of CC(C)Nc1cc(-c2ccc3c(c2)OCO3)nc(N)n1 is reported as 30% (Lassa mammarenavirus; viral replication; Huh-7; 10 µM, 72 h).
The efficacy of CCCN(CCC)CCNC(=O)c1cc(-c2ccc(Br)s2)nc2ccccc12 is reported as 77.8% (SARS-CoV-2; cytopathic effect; USA_WA1/2020; round 2, 5-point).
The responding donors of `EFVFKNIDGYFKIYS` is reported as 18% (human CD4 T cells; AIM; peptide).
CC1=C(C(=O)N2CCC(C(=O)Nc3ccc(-c4cccc(C)c4)cc3)CC2)OCCO1 has a remaining activity of 42% (Lassa mammarenavirus; viral replication; Huh-7; 10 µM, 72 h).
The responding donors of `VNLTTRTQLPPAYTN` is reported as 8% (human CD4 T cells; AIM; peptide).
O=C(NC1CC(=O)N(Cc2cccc(F)c2)C1)c1n[nH]c2c1CCCC2 (stereo not shown) gave a remaining activity of 66% (Lassa mammarenavirus; viral replication; Huh-7; 10 µM, 72 h).
Cc1ccc(-c2cccc(CN3CCCC(c4nc5ccc(C)cc5c(=O)[nH]4)C3)c2)c(C)c1 (stereo not shown) has an AC50 of 12600 nM (SARS-CoV-2; cytopathic effect, cell-based CPE; USA_WA1/2020).
With `FLHFLPRVFSAVGNI` the responding donors was 9% (human CD4 T cells; AIM; peptide).
The remaining activity of Cc1ccsc1CNc1ccc(C(=O)N2CCCC(Cn3ccnc3C)C2)cc1 (stereo not shown) is reported as 67% (Lassa mammarenavirus; viral replication; Huh-7; 10 µM, 72 h).
For CCc1c(C(=O)C(N)=O)c2c(OCC(=O)O)cccc2n1Cc1ccccc1, “activated partial thromboplastin time” read “no inhibition” (inhibitor; human platelet-poor plasma; 100 µM, together with: snake venom).
The remaining activity of O=C(C1CC(=O)N(C2CC2)C1)N1CCC2(CC1)Cc1cccc(c1)Oc1cccc(c1)CCNC2=O (stereo not shown) is reported as 49% (Lassa mammarenavirus; viral replication; Huh-7; 10 µM, 72 h).
Under “remaining fibrinogen Aα chain”, CNC(=O)[C@@H](NC(=O)[C@H](CC(C)C)[C@H](O)C(=O)NO)C(C)(C)C is recorded as 0.882 (human fibrinogen; SDS-PAGE; Daboia russelii; concentration not given, unit not given, together with: RJ venom; baseline: untreated fibrinogen).
CCCC(=O)OCSc1ccccc1C(=O)NCCC(N)=O gave an EC50 of 2300 ± 1210 nM (HIV-1; viral replication; human PBMC, subtype E CMU02, CCR5-tropic clinical isolate).
The remaining activity of COc1ccc(C[C@@H]2NC(=O)[C@@H](NC(=O)c3ccc(S(C)(=O)=O)cc3)Cc3ccc(cc3)OC[C@H](CC(C)C)NC(=O)CN(CC3CC3)C(=O)[C@@H](C)NC2=O)cc1 is reported as 52% (Lassa mammarenavirus; viral replication; Huh-7; 10 µM, 72 h).
The EC50 of Cc1cc(/C=C/C#N)cc(C)c1Nc1ccnc(Nc2ccc(C#N)cc2)n1 is reported as 0.4 ± 0.1 nM (HIV-1; viral replication, single-round infection; RT mutant G190A).
With COc1ccc(OC)c(-n2ccnc2-c2cccc(O)c2)c1 the remaining activity was 42% (Lassa mammarenavirus; viral replication; Huh-7; 10 µM, 72 h).
For `NLVIGFLFLTWICLL`, the responding donors was 7% (human CD4 T cells; AIM; peptide).
CCCCSCCCNC(=O)C1CCN(Cc2nc(-c3ccc(CC)cc3)oc2C)CC1 gave an AC50 of 12600 nM (SARS-CoV-2; cytopathic effect, cell-based CPE; USA_WA1/2020; round 2, 5-point dilution).
`RPLLESEL` — result for “frequency of responding donors”: 50 (AIM; peptide, CD8+ T cells from PBMC, human donors; HLA-B*07:02 restricted, unit not given; baseline: positive over tested donors).
Cc1cc(/C=C/C#N)cc(C)c1-n1cnc2cnc(Nc3ccc4cc(C#N)ccc4c3)nc21 gave an EC50 of under 5 nM (HIV-1; viral replication, single-round infection; RT mutant M184V).
`ω-agatoxin IVA`: “PKA-RII phosphorylation inhibition” 0.822 and 0.87 and 0.915 (cAMP signalling, high-content microscopy; DRG neurons, rat, spinal cord injury; dose not given, normalised 0 to 1, unit not given, together with: forskolin, DAMGO 0.1; baseline: DAMGO maximum, higher = stronger inhibition).
For C[C@@H]1CN(CCCn2c3ccccc3c3ccccc32)C[C@H](C)N1, the IC50 was 6110 nM (HeLa; Ebola VLP entry).
The EC50 of Cc1cn([C@H]2C[C@H](N=[N+]=[N-])[C@@H](CO)O2)c(=O)[nH]c1=O is reported as 2 nM (HIV-1; viral replication; human monocytes/macrophages, subtype B ADA, CCR5-tropic).
Cc1cc(/C=C/C#N)cc(C)c1Nc1nc(Nc2ccc(/C=C/C#N)cc2)ncc1N gave an EC50 of 0.1 ± 0.01 nM (HIV-1; viral replication, single-round infection; RT mutant V111A).
For COc1ccc2cc3[n+](cc2c1OC)CCc1cc2c(cc1-3)OCO2, the inhibition was 86.6 ± 1.5% (SARS-CoV-2 spike protein; Vero C1008; 5 µg/mL).
For CCOc1ccc(NC(=O)c2cnn(-c3ccc(C)c(Cl)c3)c2C2CCNCC2)cc1, the efficacy was 30.1% (SARS-CoV-2; cytopathic effect; USA_WA1/2020; retest, 8-point, duplicates).
The EC50 of Cn1c(Cn2ccc(C(F)(F)F)c(Oc3cc(Cl)cc(C#N)c3)c2=O)n[nH]c1=O is reported as over 100 nM (HIV-1; viral replication, single-round infection; RT mutant V106A/F227L).
The EC50 of NC(=O)CCNC(=O)c1ccccc1S is reported as 4640 ± 240 nM (HIV-1; viral replication; human PBMC, subtype C 93MW959, CCR5-tropic clinical isolate).
With Cc1cc(C(C)(C)CC(C)(C)C)ccc1OCCOCC[N+](C)(C)Cc1ccccc1.[Cl-] the maximal inhibition was 69% (HeLa; Ebola VLP entry).
With CCN(CC)CCCNC(=O)c1ccc(-c2nc(CN3CCc4ccccc43)c(C)o2)cc1 the efficacy was 81.8% (SARS-CoV-2; cytopathic effect; USA_WA1/2020; retest, 8-point, duplicates).
For `EVTPSGTWLTY`, “response magnitude per positive donor” read 114 (AIM; peptide, CD8+ T cells from PBMC, human donors; dose not given).
Cc1cc(/C=C/C#N)cc(C)c1Nc1nc(Nc2ccc3cc(C#N)ccc3c2)ncc1N has an EC50 of over 7 nM (HIV-1; viral replication, single-round infection; RT mutant D67E).
`GsMTx4` — result for “SAC current during perfusion”: 0.17 ± 0.02 pA (stretch-activated cation channel, rat; ion current, outside-out patch clamp; rat astrocytes; dose not given, holding -50 mV, 11 pressure steps).
For `YLTFYLTNDVSFLAH`, the responding donors was 17% (human CD4 T cells; AIM; peptide).
`LPYGK` gave a transition enthalpy of 0.8 kcal/mol (DSC; peptide, 7/3 SOPC/cholesterol bilayers; 5 mol%, pH 7.40, SOPC chain melting transition).
